Published values collected from several papers.
Numbered parts are unrelated; each lists some results of a single study.

Block 1
Target: Phosphate system positive regulatory protein PHO4, full length, GST-tagged (PHO4, Saccharomyces cerevisiae, UniProt P07270, residues 1-312)
Technique: competition protein-binding microarray
Form: double-stranded DNA, one strand shown
Matrix: in vitro
Tested at: 2 µM
Notes: whole 60-bp probe, lowest competitor level
Added: Cbf1 competitor, 0.05 µM
Reading: higher = stronger binding
Endpoint: fluorescence intensity
All sequences stand within: … GTCTTGATTCGCTTGACGCTGCTG
Target sequence (chain): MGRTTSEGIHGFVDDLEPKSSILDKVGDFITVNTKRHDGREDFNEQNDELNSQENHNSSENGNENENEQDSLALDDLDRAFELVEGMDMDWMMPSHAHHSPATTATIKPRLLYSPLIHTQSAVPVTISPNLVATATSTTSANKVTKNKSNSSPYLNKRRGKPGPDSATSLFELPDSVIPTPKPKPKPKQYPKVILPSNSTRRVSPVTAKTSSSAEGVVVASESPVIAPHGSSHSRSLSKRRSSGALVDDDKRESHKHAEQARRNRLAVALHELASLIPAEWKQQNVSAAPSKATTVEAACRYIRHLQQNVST
AAGGGATGGTGGCGTCACATGGGTGGTCCAAAGCAA: 8690 a.u.
CGGGGTTAAGTTTGGTGAGTGGGTGGCTTGCAGCAG: 4970 a.u.
TGAGTTAAGTGTAGGCATGTGACTCACTTCTGGTAA: 9740 a.u.
ATGTTCCTGAGGTTCCACGTGCAAAGCTAGAAGAAA: 17800 a.u.
CTTCTGTAAATTTGGGTAGTGGGTGGACGCGCCCCG: 4820 a.u.
CAATAAATCTTGTTCCTCGTGGCCGAATGGTTACGG: 11200 a.u.
CACATAACCACTTGTCACCTGTGCATTCTTACTTTT: 5880 a.u.
TTGCATGTAAGCGTTACTAATATTCCGCTTTATTTT: 3370 a.u.
CACCACCTTGCAGGTCCCGTGTAGGTAGGAGTCGCA: 6860 a.u.
ATTCACTTGTGCGGCCACGTGCGGATGAATAATAAA: 17200 a.u.
CGCTTATTTGTAGAGTTTGTAGTTTTTAAGCGTTCT: 2930 a.u.
CCAAAGGGTCCCCATCACGTCTGGTCCGGGCTTTCC: 3690 a.u.
GATATCGTTCAAATGCTCGTGCTTTAACCTTAATAC: 11500 a.u.
GGTTTGTTTACAGTACGCGTGGTGAGACCATAAAGG: 8780 a.u.
ATATGCTTCCTTTGTCACGTGCAAATTCTGACTCCA: 16700 a.u.
TTTTACAGCTGCAATCAGGTGGATTCGTTTCTTCGA: 3930 a.u.
TATTTAACTCCATTTCACGTGATGGGTTTGAAAGAA: 13700 a.u.
ACATTGGCATTGGCACTCATGACAATCATTTTGGAA: 5140 a.u.
AATTTAAGCCTTGGCAACGTGTTGAACCAAGTCGAC: 11900 a.u.
AGAGACAATTGTTGCCTCGTGGCCGGGCTATTTACA: 11900 a.u.
CTTCTGTAAATTTGTGACGTGGGTGGACGCGCCCCG: 5460 a.u.
GCCCTGTTGGAGGCCATCGTGGTCGCCAAGAAAGCA: 8090 a.u.
AAATTACTAAGTTGACCTGTGGGTGACGCCGTATGA: 4090 a.u.

Block 2
Target: RNA binding protein fox-1 homolog 2, RRM domain, GST-SBP tag (RBFOX2, Homo sapiens, UniProt O43251-10, residues 100-194)
Technique: RNA Bind-n-Seq
Form: RNA
Matrix: in vitro
Tested at: 365 nM
Notes: natural RNA segment, single round, ends assumed
Reference: no-protein control
Reading: higher = stronger binding
Endpoint: RBNS enrichment (R)
All sequences stand within: GGGAGUUCUACAGUCCGACGAUC … UGGAAUUCUCGGGUGCCAA
Residues (chain): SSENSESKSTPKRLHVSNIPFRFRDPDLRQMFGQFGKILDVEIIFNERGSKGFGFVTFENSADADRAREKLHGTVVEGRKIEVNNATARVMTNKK
CCCAUGAUUGGCUAUAAACGUUUUGUAAGAAGUCACUCUCCUUGAAAAUACUGAACAUAGCUGUAUAGGUUUGUGAUUAUUAGAGAAUAUGUUAAUAAAACUUCUUGUAA: 0.553
UUUCAGUUGCAACCUAUUUUUAAUAAACUUUGUAUGUAUUUAAGUGUAUUUGCUAUUGUUUUGAAAGUGCUGACAAAGUUUAUAUUUGUAACAUCAGCCUUCCUCGCCCA: 1.22
GGGUCAAGAAAAUGAAUGCGCCAAUAACAGUAAGAGCUGUGGAAGACACCCAUACCUGUAUAUACAUGCUCGAGAAAGCUGUAAUGUGAAAAUCAUGUUCUCUAUUUAUG: 0.936
CUCUGUGCUAAGUUUUAGAACAGUUUAGAACCAUGCAGGGAUGCCGAGAGUCUGGAGUUAGCCCAGUGUUAGGGUAGGAAGGUAGUGGCAGCUUUCCAAAGGGCCUAAAA: 0.682
ACAUUUGAUAUUUUUCUUUUUAGUUUCCUUGACUAAAGAGGUACAAUAUACUCUGAUCUACCCCUUAAUAUUGAAUAAAAGAACCAAGAAGUUCUUUCAGAUCACCAAUA: 0.307
CAUUUUAAGCAAAGGAAAAGUCUUGGGAUUGUAUGGGAAUAAAACUUGUUUGAAAAUUUGGAAUAGUGCUGCUGUCAGCUUAUUUUUCUGGUACUUGUAUUUUCUAUGUU: 1.94
UCUUGCCCUGUCUCUGAACCUUCAGAACAUUGAUCCUUGCCGCAGCCCCACUAGCCAAGAGAAACAGAGAAAGACCAUUCCCCCUGCCUGUCCUUGCGGCCCUGUCUUCU: 2.23
GAAUGAGAGAACUGUGUAAACACCCCGCUGUUCCUUCAGUGCAACACAAUAAAACUCUGAAAUGAAGAUGCUUUGCUGUGCAUUGUUUGAAAGAUUACAAACAGCUGUUU: 0.409
CCACCUGGAGGAUUUGCUGCCCUCUGUCCCUCAUUUCAGAUUAUUGCUGCUCCAACCCAUAGCACGCUUCCUACUGCACACACAUGUUUUAACCAACUGUGCCUCCCUAC: 1.68
AGCACACUAUAACAUCUGCUGGAGUGUUGCUGUUGCACCAUACUUUCUUGUACAUUUGUGUCUCCCUUCCCAACUAGACUGUAAGUGCCUUGCGGUCAGGGACUGAAUCU: 0.366
UGCCAAAACAUUUGGGCAUUGUGCCCACCACCUGCCCACACAUAGGAAGUCCACUUCAGUAAGUGCAAGGCGCUAGCACCCAUCGAGGUAGAGGACAUUGCUUUAAGCCC: 0.26
UGGAAAAGGCACAUGCCGAAGAUACUCAAGAGCUCCCAAGAUUUGCUUGAGGCUAGCCCAGUGAAAAAAACCAGAGACUCAUGUUUCCAGGGGUCAGUCUGUCAGGCAGG: 2.79

Block 3
Target: RING finger protein unkempt homolog, zinc fingers 1-6, SBP tag (UNK, Homo sapiens, UniProt Q9C0B0, residues 30-357)
Chain of UniProt Q9C0B0 (30-357, looked up): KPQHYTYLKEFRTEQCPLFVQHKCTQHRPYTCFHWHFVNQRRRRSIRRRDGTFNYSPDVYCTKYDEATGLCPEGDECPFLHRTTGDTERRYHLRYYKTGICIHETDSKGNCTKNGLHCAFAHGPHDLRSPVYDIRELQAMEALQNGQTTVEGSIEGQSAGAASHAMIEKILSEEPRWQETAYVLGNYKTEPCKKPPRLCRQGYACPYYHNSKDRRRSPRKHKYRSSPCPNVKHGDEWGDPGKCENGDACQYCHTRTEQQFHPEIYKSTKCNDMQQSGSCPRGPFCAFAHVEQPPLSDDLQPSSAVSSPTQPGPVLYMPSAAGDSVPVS
Technique: RNA Bind-n-Seq
Form: RNA
Matrix: in vitro
Tested at: 100 nM
Notes: RNA with constant flanks, vertebrate orthologous sites, ends assumed
Reference: input RNA pool
Reading: higher = stronger binding
Endpoint: bound/input enrichment
All sequences stand within: GGGAGUUCUACAGUCCGACGAUC … CAACAGAGGAUUGAGCAUCA
AACAGUUUAGAUAUUCUUUUAAUUUUUUCUUUUCCCUUAAUCCUUUCUUAUUUUUAAAAAUAGUUCUUUUGUAAUGUGGUGUUCAAAACGAAAUUGAAAACAGGCACCUCUCCUUAAAAC: 9.34 ratio
AAAUUCCCCCAUUGUCGCUGAGAACCACCAAAUCUGACUUUUACAUUUGGUCUCAGAAUUUAGUUUCCUGCCCUGUUGGUUUUUUUUUUUUUUUUUAAAAAAAAAAAACAGUUUUCAAAA: 0.338 ratio
UCCAGUCUUACACUUAUGGUUGGCCUCAAAUCUAUUGCAUUUAUGAUAAUGUAUUAUAUCUAGUUGAGUUUAAUAUUUUUUUAUUAGCCUGUAAAUAAAGAUGGCAUCUUCUACAUUAAA: 0.555 ratio
AAGCCCUAGUUCUUGAACCAACACCCAUAAAAGAUUUAGAAAAAAGUUUACAACAUAAUCUAGUUUACUGAAGACGCCUUGUGCUAGAAUACUUUUUAAAAAGUAUUUUUGAAUACCAUU: 0.495 ratio
CAACUCCAUGGUUGAGGGCUCGGAGCUCAAAAAGGUCCGGUCCAAUUCGAGGAUUUACCAUCGCUAUUUCUUACUGGACGCUGACAUGCAGAGCUUGAGGUGGGAGCCAUCCAAGAAGGA: 0.194 ratio
GCAAUGAAAAAGCAGCCUUUCUCCCAGCCCCCCUUUCACUAGGAGAUACAAACGUUACCAUAGAAGAGCAAUUAAACUCAAUAAAUUUAUCUUUUCAGGAUGAUCCAGACUCCAGCACCA: 1.24 ratio
CCAGUUUGUAUGCACAUUAUACACAUUCCUCUCUGUUGUGUUUGCAAAAAAUAAGACAUUUUAGUUUUUUCUAAGGGUUAUUGAUUCACUUUCUCAUUUGGCUGCAUGAAAUUGCCCUUA: 0.42 ratio
CAGCCGAUUCACUCAUUGGGAGAGCUGCACAUAUAGCUGUUCUUGAUUCGGAAAUAUUUUUAGAGAAAUUCUUCCUGGUUGCCGCCCUCAAAUAUUUCCAGUAGGAUAAAAACAUUAUUA: 1.1 ratio
UCCAUGCCACUGUCACCAAAAGCAGUCAGCUACGUUUCACAAUUUCUUUAAUAGCACUUUUAGUGUUUCCUCUUCCCUCCCCUUCCCAUUGCUUAGAUGAUAAAAGGUCCUGAGUUUUCC: 1.5 ratio
AAGAUGGUGGUUGUACAUUAUUUCAUUUAGAAAAUAUAAAAACUCAUUUUGUUUUGAAGCUAGGUGUUAAACUGGAAUAGCUCUGAUACCCCAGAGAAUGGGGCAAUUGUGCCCUUCCCU: 1.06 ratio
CAGGGAUGGCCCUAAUCCCACCUCUGUUUAUUCUGUAAACUACAACCUGUAAAUAACGUUUAGCAUUCCUAUUGUAACAAAAUUAAUUUUUAUGAAAUAAAUUAUAUUUCCUAGUCUAAU: 1.23 ratio

Block 4
Target: Histone acetyltransferase KAT6A, winged helix 1, GST fusion (KAT6A, Homo sapiens, UniProt Q92794, residues 1-85)
Technique: protein binding microarray
Form: double-stranded DNA, one strand shown
Matrix: in vitro
Tested at: not given
Notes: 8-mer, flanks averaged, mean of 2 arrays, mostly near background
Reference: not given
Reading: higher = stronger binding
Endpoint: E-score
Construct (chain): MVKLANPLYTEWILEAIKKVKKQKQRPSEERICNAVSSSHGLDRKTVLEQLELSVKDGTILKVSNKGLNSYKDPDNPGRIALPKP
GACGTATA: 0.0217
AAGCCACC: -0.14
CATACGTA: 0.15
ACAGTTCT: 0.0129
CCGTACGA: 0.141
CCTTGTCG: -0.016
GACACGGC: 0.348
CGCGAGGC: 0.312
AGCGGCAA: 0.344
GCATAGAC: -0.017
GGCATAGA: 0.0461
AAGGAACC: -0.0237
ATTAGGCA: -0.0817
GATCTGTA: -0.128
AATGCCGT: 0.4
ACGTCCAC: -0.111
AGAGTCTG: -0.301
GCAAACCA: -0.102
ATGCAAAG: -0.142
ACAAGGAT: -0.197
CATACTTC: -0.165
ACATAACC: -0.085
ATGGATGG: -0.0773
ACAGCATG: -0.0717
